Published values from different studies.
Each line is one published result; not all experiments were run side by side. Numbers after ± are the reported error.
Method: steady-state kinetics
B1: protein (Sinorhizobium meliloti, UniProt Q92LZ4); chain MSRPRILVPGKINPRVLERLPEMFETVRIERADAALVTADMRDVSGIAVSGKLPVPLMDAFPSLEIVANFGVGYDGVDVSRAAARGIVVTNTPDVLTEEVADTAIGLLLNTLRLLPQAEQWLRQGRWVREGAFPLSPLSLRGRTVGLFGLGRIGLAIARRLEAFGVSIAYHTRTPREGLGFTYHPTLVGMAEAVDTLIVIVPGTASTLKAVNADVLSALGPKGVLINVGRGSTVDEAALVTALQNGTIAGAGLDVFENEPNVPEALLSFPNVSLLPHVASASVVTRNAMSDLVVDNLKAWFSTGEALTPVAETPFRRRAIQN
B2: protein (Sinorhizobium meliloti, UniProt Q92WA4); chain MNYFRNDFRGTLFGTNEATDSLRRRSLQKRILVTGGAGFLGSHLCELLLGAGHEVICLDNFSTGLRRNIAPLKRFDTFRVIAHDVVEPIDLEVDEIYNLACPASPPHYQADPIQTTKTCVIGSLNLLDLAARRGARIFQASTSEIYGDPHVHPQVESYWGNVNPFGPRSCYDEGKRCAETLFFDFHKSHGVEIKIVRIFNTYGPRMRPDDGRVVSNFIVQALKGEDITIYGDGSQTRSFCFVEDLIDGFVRLMASPPSLTGPVNLGNPAEFTIGELAEEVIRLTGSRSKIVRRPLPVDDPRQRRPDISLATEELGWRPKVNLAEGLAHTIRYFDDLLSRSMRESAELV
B3: protein (Streptomyces coelicolor, UniProt P16544); chain MATQDSEVALVTGATSGIGLEIARRLGKEGLRVFVCARGEEGLRTTLKELREAGVEADGRTCDVRSVPEIEALVAAVVERYGPVDVLVNNAGRPGGGATAELADELWLDVVETNLTGVFRVTKQVLKAGGMLERGTGRIVNIASTGGKQGVVHAAPYSASKHGVVGFTKALGLELARTGITVNAVCPGFVETPMAASVREHYSDIWEVSTEEAFDRITARVPIGRYVQPSEVAEMVAYLIGPGAAAVTAQALNVCGGLGNY
B4: GTPBP3 P257H (Homo sapiens, UniProt Q969Y2); chain TRRSSGAPAPGSGATIFALSSGQGRCGIAVIRTSGPASGHALRILTAPRDLPLARHASLRLLSDPRSGEPLDRALVLWFPGPQSFTGEDCVEFHVHGGPAVVSGVLQALGSVPGLRPAEAGEFTRRAFANGKLNLTEVEGLADLIHAETEAQRRQALRQLDGELGHLCRGWAETLTKALAHVEAYIDFGEDDNLEEGVLEQADIEVRALQVALGAHLRDARRGQRLRSGVHVVVTGHPNAGKSSLVNLLSRKPVSIVSPEPGTTRDVLETPVDLAGFPVLLSDTAGLREGVGPVEQEGVRRARERLEQADLILAMLDASDLASPSSCNFLATVVASVGAQSPSDSSQRLLLVLNKSDLLSPEGPGPGPDLPPHLLLSCLTGEGLDGLLEALRKELAAVCGDPSTDPPLLTRARHQHHLQGCLDALGHYKQSKDLALAAEALRVARGHLTRLTGGGGTEEILDIIFQDFCVGK
B5: PduO F112H (Limosilactobacillus reuteri, UniProt Q50EJ2); chain MKIYTKNGDKGQTRIIGKQILYKNDPRVAAYGEVDELNSWVGYTKSLINSHTQVLSNELEEIQQLLFDCGHDLATPADDERHSFKFKQEQPTVWLEEKIDNYTQVVPAVKKHILPGGTQLASALHVARTITRRAERQIVQLMREEQINQDVLIFINRLSDYFFAAARYANYLEQQPDMLYRNSKDVFR
B6: protein (UniProt A0A4Y6I1F8); chain MGSEVVSKKHEFGALEVEGIDFRASVAALGSTKKLVLGGAGFRGLEINGNLVKFTAIGIYVEEAIIPHLSPKLGGKTVEELCANELLFEEVLSAPFDKLIRVVFLLPLTGPQYSEKVVERIGLLPNPGLKEESIKQFLEIFKAENFPPRTSLVCSFTEDGLKIAFMKGPDFPEESDAVIEDKYFARAFLATIIAKDGVSPMAKLSFAERVSKYL
B7: enzyme (Phocaeicola vulgatus, UniProt A6KWY2); chain MNYNEIGKTGMRVSNLSFGASSLGGVFHDIREAEGIKAVYTAVENGMNFIDVSPYYGHYKAETVLGKALKEIPRDKYYLSTKVGRYGKDGVNTWDYSGKRATESVYESLDRLHIEYIDLINVHDVEFSDMNQVVNETLPALVELKKKGIVGHVGITDLQLENLKWIIDHSEPGTVESVLNFCHYCLNDEKLTDYLDYFESKNIGIINASPLSMGLLSQRGVPAWHPAPQSLVEACRKAVQHCLSKNYPIEKLAIQYSVSNPRIATTLFSSANPDNVLKNITYAEEPIDWNLVKEVQEIIGKQMRISWANS
B8: protein F222G (Planktothrix agardhii, UniProt F5B6Z0); chain MIVNVIQKDRLKEQKLQFIRNHQQAFDVEPIYPLPLFEDFVTSIEGDCSLEASCKIESDKLIASRFLLFFEDKTQEWQKYLHQSLTFFGLVENRVGVKINYSLLQQFLGSSFDFSKVTVLSAGIDLRNNLAESSLKMHIRIKDYPEKLDKAFALSDGAADGNYLKDFVNLIGFDFYFNGKSEIEIYAEVQEDDFFKPEINNLVWQHFPKTALQPLKASSLFGTGLSKANNNPVLYYHLKNRQDLTNYFKLNDTAQRVHSFYQHQDILPYMWVGTAQKELEKTRIENIRLYYYKSFKMESN
B9: estF (Pseudomonas fluorescens, UniProt P22862); chain STFVAKDGTQIYFKDWGSGKPVLFSHGWLLDADMWEYQMEYLSSRGYRTIAFDRRGFGRSDQPWTGNDYDTFADDIAQLIEHLDLKEVTLVGFSMGGGDVARYIARHGSARVAGLVLLGAVTPLFGQKPDYPQGVPLDVFARFKTELLKDRAQFISDFNAPFYGINKGQVVSQGVQTQTLQIALLASLKATVDCVTAFAETDFRPDMAKIDVPTLVIHGDGDQIVPFETTGKVAAELIKGAELKVYKDAPHGFAVTHAQQLNEDLLAFLKR
B10: BaiA2 (Clostridium scindens, UniProt P19337); chain MNLVQDKVTIITGGTRGIGFAAAKIFIDNGAKVSIFGETQEEVDTALAQLKELYPEEEVLGFAPDLTSRDAVMAAVGQVAQKYGRLDVMINNAGITSNNVFSRVSEEEFKHIMDINVTGVFNGAWCAYQCMKDAKKGVIINTASVTGIFGSLSGVGYPASKASVIGLTHGLGREIIRKNIRVVGVAPGVVNTDMTNGNPPEIMEGYLKALPMKRMLEPEEIANVYLFLASDLASGITATTVSVDGAYRP

`B1 (protein)` gave a kcat/Km of 773000 ± 154000 M⁻¹ s⁻¹ (NC(=O)C1=CN([C@@H]2O[C@H](COP(=O)(O)OP(=O)(O)OC[C@H]3O[C@@H](n4cnc5c(N)ncnc54)[C@H](OP(=O)(O)O)[C@@H]3O)[C@@H](O)[C@H]2O)C=CC1; pH 7.5, 25 °C, NaCl 150 mM, cofactor varied, together with: hydroxypyruvate 66.7 mM).
The kcat/Km of `B2 (protein)` is reported as 18300 ± 200 M⁻¹ s⁻¹ (O=C(O)[C@H]1O[C@H](OP(=O)(O)OP(=O)(O)OC[C@H]2O[C@@H](n3ccc(=O)[nH]c3=O)[C@H](O)[C@@H]2O)[C@H](O)[C@@H](O)[C@@H]1O; pH 7.6, 37 °C, together with: NAD+ 1 mM).
With `B3 (protein)` the kcat/Km was 35 ± 6 M⁻¹ s⁻¹ (O[C@H]1CCCc2ccccc21; pH 7.4, phosphate 400 mM, NADPH 250 µM printed, together with: NADP+, reverse reaction).
For `enzyme (Vitis vinifera, UniProt F6H697)`, the kcat/Km was 22800 M⁻¹ s⁻¹ (O=C(O)Cc1c[nH]c2ccccc12; pH 8.6, 25 °C).
`B4 (GTPBP3 P257H)` gave a kcat/Km of 80.2 M⁻¹ s⁻¹ (Nc1nc2c(ncn2[C@@H]2O[C@H](COP(=O)(O)OP(=O)(O)OP(=O)(O)O)[C@@H](O)[C@H]2O)c(=O)[nH]1; pH 8, 37 °C, KCl 300 mM).
`protein (Clostridioides difficile, UniProt Q18B70)` gave a kcat/Km of 30900 M⁻¹ s⁻¹ (CC(=O)SCCNC(=O)CCNC(=O)[C@H](O)C(C)(C)COP(=O)(O)OP(=O)(O)OC[C@H]1O[C@@H](n2cnc3c(N)ncnc32)[C@H](O)[C@@H]1OP(=O)(O)O; pH 8, 37 °C, together with: L-Thr 10 mM, AcCoA 0-2 mM).
The kcat/Km of `B5 (PduO F112H)` is reported as 140 ± 10 M⁻¹ s⁻¹ (Nc1ncnc2c1ncn2[C@@H]1O[C@H](COP(=O)(O)OP(=O)(O)OP(=O)(O)O)[C@@H](O)[C@H]1O; pH 8, 37 °C, anoxic, together with: cob(I)alamin).
`alanine aminopeptidase (Neisseria meningitidis, UniProt Q9JYV4)` gave a kcat/Km of 31000 ± 1000 M⁻¹ s⁻¹ (NC(=O)Cc1cc(=O)oc2cc(NC(=O)[C@@H](N)CC3CCCCC3)ccc12; pH 7.5, 37 °C).
`B6 (protein)` gave a kcat/Km of 1.57e+06 M⁻¹ s⁻¹ (O=C(/C=C/c1ccc(O)cc1)c1c(O)cc(O)cc1O).
For `IYD (Homo sapiens, UniProt Q6PHW0)`, the kcat/Km was 15000 ± 2000 M⁻¹ s⁻¹ (Cc1cc(C[C@H](N)C(=O)O)cc(I)c1O; pH 7.4, 25 °C, together with: sodium dithionite 0.5%).
The kcat/Km of `B7 (enzyme)` is reported as 8e+06 ± 400000 M⁻¹ s⁻¹ (NC(=O)c1ccc[n+]([C@@H]2O[C@H](COP(=O)(O)OP(=O)(O)OC[C@H]3O[C@@H](n4cnc5c(N)ncnc54)[C@H](OP(=O)(O)O)[C@@H]3O)[C@@H](O)[C@H]2O)c1; pH 8, 30 °C, cofactor varied).
The kcat/Km of `B8 (protein F222G)` is reported as 15.3 M⁻¹ s⁻¹ (CC(C)=CCOP(=O)(O)OP(=O)(O)O; together with: tri-Tyr peptide acceptor).
For `B9 (estF)`, the kcat/Km was 800 M⁻¹ s⁻¹ (CCOC(C)=O; pH 6.5, 23 °C, apparent).
The kcat/Km of `enzyme (Actinoalloteichus caeruleus, UniProt M1F4W9)` is reported as 900 M⁻¹ s⁻¹ (CSc1c(O)cc(-c2ccccn2)nc1C(=O)N[C@@H](CC(C)C)C(=O)O; pH 8, 30 °C).
With `B10 (BaiA2)` the kcat/Km was 151000 M⁻¹ s⁻¹ (C[C@H](CCC(=O)SCCNC(=O)CCNC(=O)[C@H](O)C(C)(C)COP(=O)(O)OP(=O)(O)OC[C@H]1O[C@@H](n2cnc3c(N)ncnc32)[C@H](O)[C@@H]1OP(=O)(O)O)[C@H]1CC[C@H]2[C@@H]3[C@H](O)C[C@@H]4CC(=O)CC[C@]4(C)[C@H]3CC[C@]12C; pH 8.7, 37 °C, together with: NADH).
The kcat/Km of `enzyme (Rhodococcus opacus, UniProt Q6F4M8)` is reported as 1420 ± 56.1 M⁻¹ s⁻¹ (O=[N+]([O-])c1ccc(O)cc1; pH 7.5, 25 °C).

A few entries again:
The kcat/Km of `B5 (PduO F112H)` is reported as 140 ± 10 M⁻¹ s⁻¹ (Nc1ncnc2c1ncn2[C@@H]1O[C@H](COP(=O)(O)OP(=O)(O)OP(=O)(O)O)[C@@H](O)[C@H]1O; pH 8, 37 °C, anoxic, together with: cob(I)alamin).
`alanine aminopeptidase (Neisseria meningitidis, UniProt Q9JYV4)` gave a kcat/Km of 31000 ± 1000 M⁻¹ s⁻¹ (NC(=O)Cc1cc(=O)oc2cc(NC(=O)[C@@H](N)CC3CCCCC3)ccc12; pH 7.5, 37 °C).
